Assay results gathered from unrelated publications.
Lines come from different studies, so protocols differ. ≈ marks a conversion by molar mass, not a printed value.
Organism: Pseudomonas aeruginosa

CC[C@H](C)[C@H](NC(=O)[C@H](CCCCN)NC(=O)[C@H](CCCCN)NC(=O)[C@H](CC(C)C)NC(=O)[C@H](CCCCN)NC(=O)[C@H](CCC(=O)O)NC(=O)[C@H](CCCCN)NC(=O)[C@@H](NC(=O)[C@H](CCCCN)NC(=O)[C@H](CC(N)=O)NC(=O)[C@H](CCCNC(=N)N)NC(=O)[C@H](Cc1ccccc1)NC(=O)[C@H](CCCCN)NC(=O)[C@H](CCCNC(=N)N)NC(=O)[C@H](CC(C)C)NC(=O)[C@H](CCCNC(=N)N)NC(=O)[C@H](CCCCN)NC(=O)[C@H](CCCNC(=N)N)NC(=O)[C@H](CC(C)C)NC(=O)[C@@H](N)CCCNC(=N)N)[C@@H](C)CC)C(=O)NCC(=O)N[C@@H](CCC(N)=O)C(=O)N[C@@H](CCCCN)C(=O)N[C@H](C(=O)N[C@@H](CCC(N)=O)C(=O)NCC(=O)N[C@@H](Cc1ccccc1)C(=O)N[C@H](C(=O)N1CCC[C@H]1C(=O)N[C@@H](CCCCN)C(=O)N[C@@H](CC(C)C)C(=O)N[C@@H](CCC(N)=O)C(=O)N1CCC[C@H]1C(=O)N[C@@H](CO)C(=O)N[C@@H](CCCCN)C(=O)N[C@@H](CCC(N)=O)C(=O)N[C@@H](CO)C(=O)O)C(C)C)[C@@H](C)CC
lethal concentration (inhibition zone method; 14, LB 0.8% agar with 154 mM NaCl; overnight, 37 °C): 3.75 µM

CC(C)C[C@H](NC(=O)[C@H](CCCCN)NC(=O)[C@H](CCCCNC(=O)[C@H](CC(C)C)NC(=O)[C@H](CCCCN)NC(=O)[C@H](CCCCNC(=O)[C@H](CC(C)C)NC(=O)[C@H](CCCCN)NC(=O)[C@H](CCCCNC(=O)[C@H](CC(C)C)NC(=O)[C@@H](N)CCCCN)NC(=O)[C@H](CC(C)C)NC(=O)[C@@H](N)CCCCN)NC(=O)[C@H](CC(C)C)NC(=O)[C@H](CCCCN)NC(=O)[C@H](CCCCNC(=O)[C@H](CC(C)C)NC(=O)[C@@H](N)CCCCN)NC(=O)[C@H](CC(C)C)NC(=O)[C@@H](N)CCCCN)NC(=O)[C@H](CC(C)C)NC(=O)[C@H](CCCCN)NC(=O)[C@H](CCCCNC(=O)[C@H](CC(C)C)NC(=O)[C@H](CCCCN)NC(=O)[C@H](CCCCNC(=O)[C@H](CC(C)C)NC(=O)[C@@H](N)CCCCN)NC(=O)[C@H](CC(C)C)NC(=O)[C@@H](N)CCCCN)NC(=O)[C@H](CC(C)C)NC(=O)[C@H](CCCCN)NC(=O)[C@H](CCCCNC(=O)[C@H](CC(C)C)NC(=O)[C@@H](N)CCCCN)NC(=O)[C@H](CC(C)C)NC(=O)[C@@H](N)CCCCN)C(N)=O
MBIC (biofilm formation; PAO1; 24 h): 4 µM

CC[C@H](C)[C@H](NC(=O)[C@H](CCCCN)NC(=O)[C@H](CCCCN)NC(=O)[C@H](CC(C)C)NC(=O)[C@H](CCCCN)NC(=O)[C@H](CCC(=O)O)NC(=O)[C@H](CCCCN)NC(=O)[C@@H](NC(=O)[C@H](CCCCN)NC(=O)[C@H](CC(N)=O)NC(=O)[C@H](CCCNC(=N)N)NC(=O)[C@H](Cc1ccccc1)NC(=O)[C@H](CCCCN)NC(=O)[C@H](CCCNC(=N)N)NC(=O)[C@H](CC(C)C)NC(=O)[C@H](CCCNC(=N)N)NC(=O)[C@H](CCCCN)NC(=O)[C@H](CCCNC(=N)N)NC(=O)[C@H](CC(C)C)NC(=O)CN)[C@@H](C)CC)C(=O)NCC(=O)N[C@@H](CCC(N)=O)C(=O)N[C@@H](CCCCN)C(=O)N[C@H](C(=O)N[C@@H](CCC(N)=O)C(=O)NCC(=O)N[C@@H](Cc1ccccc1)C(=O)N[C@H](C(=O)N1CCC[C@H]1C(=O)N[C@@H](CCCCN)C(=O)N[C@@H](CC(C)C)C(=O)N[C@@H](C)C(=O)N1CCC[C@H]1C(=O)N[C@@H](CCCNC(=N)N)C(=O)N[C@H](C(=O)N[C@@H](CC(=O)O)C(=O)N[C@@H](Cc1ccc(O)cc1)C(=O)O)[C@@H](C)O)C(C)C)[C@@H](C)CC
lethal concentration (inhibition zone method; 11092304, LB 0.8% agar with 154 mM NaCl; overnight, 37 °C): 3.13 µM

CC(C)C[C@@H]1NC(=O)[C@H](CCN)NC(=O)CSC[C@@H]2NC(=O)[C@H](CC(C)C)NC(=O)[C@H](CC(C)C)NC(=O)[C@H](CCN)NC(=O)[C@H](CCCCNC(=O)[C@H](CCN)NC1=O)NC(=O)[C@H](CCN)NC(=O)[C@H](CC(C)C)NC(=O)[C@H](CCN)NC(=O)CSC[C@@H](C(=O)N[C@@H](CCN)C(N)=O)NC(=O)[C@H](CC(C)C)NC(=O)[C@H](CC(C)C)NC(=O)[C@H](CC(C)C)NC2=O
minimal biofilm inhibitory concentration (PAO1; 24 to 25 h): > 32 µg/mL

CCCCCCCCCC(=O)NCC(=O)N[C@@H](CC(C)C)C(=O)N[C@@H](CC(C)C)C(=O)N[C@@H](CCCCN)C(=O)N[C@@H](CCCNC(=N)N)C(=O)N[C@H](C(=O)N[C@@H](CCCCN)C(=O)N[C@H](C(=O)N[C@@H](CC(C)C)C(=O)N[C@@H](CC(C)C)C(N)=O)[C@@H](C)O)[C@@H](C)CC
FIC index (checkerboard; ATCC 27853; together with: rifampicin): 0.5

CC[C@H](C)[C@H](NC(=O)[C@H](CCCCN)NC(=O)[C@H](CCCCN)NC(=O)[C@H](CC(C)C)NC(=O)[C@H](CCCCN)NC(=O)[C@H](CCC(=O)O)NC(=O)[C@H](CCCCN)NC(=O)[C@@H](NC(=O)[C@H](CCCCN)NC(=O)[C@H](CC(N)=O)NC(=O)[C@H](CCCNC(=N)N)NC(=O)[C@H](Cc1ccccc1)NC(=O)[C@H](CCCCN)NC(=O)[C@H](CCCNC(=N)N)NC(=O)[C@H](CC(C)C)NC(=O)[C@H](CCCNC(=N)N)NC(=O)[C@H](CCCCN)NC(=O)[C@H](CCCNC(=N)N)NC(=O)[C@@H](N)CC(C)C)[C@@H](C)CC)C(=O)NCC(=O)N[C@@H](CCC(N)=O)C(=O)N[C@@H](CCCCN)C(=O)N[C@H](C(=O)N[C@@H](CCC(N)=O)C(=O)NCC(=O)N[C@@H](Cc1ccccc1)C(=O)N[C@H](C(=O)N1CCC[C@H]1C(=O)N[C@@H](CCCCN)C(=O)N[C@@H](CC(C)C)C(=O)O)C(C)C)[C@@H](C)CC
lethal concentration (inhibition zone; O1; LB agar, overnight): 2.1 µM

CC[C@H](C)[C@H](NC(=O)[C@H](Cc1c[nH]cn1)NC(=O)[C@H](CCCCNC(=O)[C@@H](NC(=O)[C@H](CCCCN)NC(=O)CSC[C@H](NC(=O)[C@H](Cc1ccccc1)NC(=O)[C@H](CCCCNC(=O)[C@H](CC(C)C)NC(=O)[C@@H]1CCCN1C(=O)[C@H](CCCCN)NC(=O)CCS[C@@H]1O[C@H](CO)[C@H](O)[C@H](O)[C@H]1O)NC(=O)[C@H](CC(C)C)NC(=O)[C@@H]1CCCN1C(=O)[C@H](CCCCN)NC(=O)CCS[C@@H]1O[C@H](CO)[C@H](O)[C@H](O)[C@H]1O)C(N)=O)[C@@H](C)CC)NC(=O)[C@@H](NC(=O)[C@H](CCCCN)NC(=O)CSC[C@H](NC(=O)[C@H](Cc1ccccc1)NC(=O)[C@H](CCCCNC(=O)[C@H](CC(C)C)NC(=O)[C@@H]1CCCN1C(=O)[C@H](CCCCN)NC(=O)CCS[C@@H]1O[C@H](CO)[C@H](O)[C@H](O)[C@H]1O)NC(=O)[C@H](CC(C)C)NC(=O)[C@@H]1CCCN1C(=O)[C@H](CCCCN)NC(=O)CCS[C@@H]1O[C@H](CO)[C@H](O)[C@H](O)[C@H]1O)C(N)=O)[C@@H](C)CC)C(N)=O
MBC (PAO1; biofilm-forming conditions): > 45 µM

CC[C@H](C)[C@H](NC(=O)[C@H](CCCNC(=N)N)NC(=O)[C@@H](NC(=O)[C@H](C)NC(=O)[C@@H](NC(=O)[C@@H](NC(=O)[C@H](CC(C)C)NC(=O)[C@H](CCCNC(=N)N)NC(=O)[C@@H](N)C(C)C)[C@@H](C)CC)C(C)C)C(C)C)C(=O)N[C@@H](Cc1c[nH]c2ccccc12)C(=O)N[C@@H](CCCNC(=N)N)C(=O)N[C@@H](CCCNC(=N)N)C(N)=O
concentration abolishing (p)ppGpp accumulation (together with: serine hydroxamate 500 µM): 5 µg/mL

CC(C)[C@H](N)C(=O)N[C@H]1CSSC[C@@H](C(=O)N[C@H](C(N)=O)C(C)C)NC(=O)[C@H](Cc2c[nH]c3ccccc23)NC(=O)[C@H](CCCCN)NC(=O)[C@H](CCCCN)NC(=O)[C@H](Cc2c[nH]c3ccccc23)NC(=O)[C@H](CCCCN)NC(=O)[C@H](CCCNC(=N)N)NC(=O)[C@H](CCCCN)NC(=O)[C@H](Cc2c[nH]c3ccccc23)NC(=O)[C@H](CCCCN)NC(=O)[C@H](CCCCN)NC(=O)[C@H](Cc2c[nH]c3ccccc23)NC(=O)[C@H](CCCNC(=N)N)NC(=O)[C@H](CCCCN)NC1=O
time to complete killing (CICC 21625; 10 x MIC): ≤ 1 min

O=C1NC(=O)c2c(NCCCc3cccc(O)c3)cccc21
secreted pyoverdine (125 µM, 13 h; baseline: untreated): ~4 fold

CN1CC(=O)N=C1N.C[C@H](CCC(=O)O)[C@H]1CC[C@H]2[C@@H]3[C@@H](O)C[C@@H]4C[C@H](O)CC[C@]4(C)[C@H]3CC[C@]12C
antibacterial activity (TISTR357; 1 mg per disc, 18 to 24 h, 37 °C): inactive

C[C@@H](O)[C@H](NC(=O)c1ccc(C#Cc2ccc(CN3CCOCC3)cc2)cc1)C(=O)NO
MIC90 (microbial growth; PAO1): 1 mg/L (≈ 2.29 µM)

Nc1ccccc1C(=O)NS(=O)(=O)NC[C@H]1O[C@@H](n2cnc3c(N)ncnc32)[C@H](O)[C@@H]1O
lowest effective concentration (HHQ and PQS production, inhibitor, LC-MS/MS; PA14; up to 24 h): 100 µM
